Measured values of several laboratories.
Each line is one published result; not all experiments were run side by side. ± gives the spread as reported. Where no end group is shown, it is not given here.
SLC10A1: Hepatic sodium/bile acid cotransporter (SLC10A1, Homo sapiens, UniProt Q14973)
Protein farnesyltransferase: Protein farnesyltransferase (Homo sapiens, UniProt P49354+P49356)
CXCR4: C-X-C chemokine receptor type 4 (CXCR4, Homo sapiens, UniProt P61073)
UGT1A9: UDP-glucuronosyltransferase 1A9 (UGT1A9, Homo sapiens, UniProt O60656)
B1: side-chain stapled; chain AACVSFQNLDCG (also: sidechain bridge or staple (positions not given here))

Substance	target	test	test system	setting	scale	quantity	value
C[C@H]1[C@H](NC(=O)/C(=N\OC(C)(C)C(=O)O)c2csc(N)n2)C(=O)N1S(=O)(=O)O	SLC10A1	inhibitor	HEK293 expressing NTCP	100 µM, 5 min, together with: taurocholate 10 µM	relative to: no compound	taurocholate uptake	104 ± 4%
Ac-EVVYLIIRACARRAQRRSNP-NH2 (N-acetyl, C-amide)	Calmodulin-1 (CALM1, Homo sapiens, UniProt P0DP23, D23A/D59A)	Ca2+ dissociation EF3, stopped flow	peptide	10 µM, pH 7.0, 21 °C, together with: CaM12 mutant		koff	3.1 ± 0.1 s⁻¹
CC(C)C[C@H](NC(=O)[C@H](C)NC(=O)[C@@H](N)CO)C(=O)N[C@@H](CC(C)C)C(=O)N[C@@H](CCCNC(=N)N)C(=O)N[C@@H](CC(N)=O)C(=O)O	Proteinase-activated receptor 1 (F2R, Homo sapiens, UniProt P25116)	AFM force spectroscopy	proteoliposomes			binding free energy	-5.73 kcal/mol
Cc1c(OCC(F)(F)F)ccnc1C[S+]([O-])c1nc2ccccc2[nH]1 (stereo not shown)	Alzheimer paired helical filaments	surface plasmon resonance		150 µM, response per molecular weight	relative to: thioflavin S	relative binding	0.7
N[C@@H](C(=O)N[C@@H]1C(=O)N2C(C(=O)O)=C(Cl)CS[C@H]12)c1ccccc1	SLC10A1	inhibitor	HEK293 expressing NTCP	100 µM, 5 min, together with: taurocholate 10 µM	relative to: no compound	taurocholate uptake	99.1 ± 6.2%
N.N.N.O=c1[nH]c(=O)n([C@@H]2O[C@H](COP(=O)(O)OP(=O)(O)O)[C@@H](O)[C@H]2O)cc1I	Uracil nucleotide/cysteinyl leukotriene receptor (GPR17, Homo sapiens, UniProt Q13304)	frontal affinity chromatography-MS	immobilized on IAM column	1 µM, compound mixture		breakthrough time	4.06 min
CAYL	Protein farnesyltransferase	enzyme activity, substrate, fluorimetric	peptide	3 µM, 30 min, together with: 9 µM farnesyl diphosphate	relative to: dansyl-GCVLS (set to 1.0)	relative fluorescence increase	0
N.N.N.N.Nc1nc(C#Cc2ccccc2)nc2c1ncn2[C@@H]1O[C@H](COP(=O)(O)OP(=O)(O)OP(=O)(O)O)[C@@H](O)[C@H]1O	Uracil nucleotide/cysteinyl leukotriene receptor, short isoform (GPR17, Homo sapiens, UniProt Q13304, R283I)	frontal affinity chromatography-MS	mutated receptor IAM column	concentration not given	relative to: wild type column	breakthrough time change	23%
O=C(NCc1ccc(CNS(=O)(=O)c2ccc3c(c2)CCO3)cc1)c1ccc(F)cc1	CXCR4	binding, competitor, rhodamine fluorescence	MDA-MB-231	semi-quantitative screen, together with: biotinylated TN14003		lowest effective concentration	10 nM
CIIL	Protein farnesyltransferase	enzyme activity, substrate, fluorimetric	peptide	3 µM, 30 min, together with: 9 µM farnesyl diphosphate	relative to: dansyl-GCVLS (set to 1.0)	relative fluorescence increase	1.01
O=C(NCc1ccc(CNS(=O)(=O)c2ccccc2)cc1)c1ccc(CNc2ncccn2)cc1	CXCR4	binding, competitive inhibitor, competitive binding	MDA-MB-231	semi-quantitative rhodamine readout, together with: biotinylated TN14003		lowest effective concentration	1 nM
O=C(O)c1ccc(NC(c2ccc(Br)cc2)c2ccc3ccccc3c2O)cc1 (stereo not shown)	CAAX prenyl protease 2 (Homo sapiens, UniProt Q9Y256)	enzyme activity, inhibitor		10 µM		remaining activity	< 40%
Cc1ccc(Oc2ccccc2)c(O)c1	Enoyl-[acyl-carrier-protein] reductase [NADPH] FabI (Staphylococcus aureus, UniProt Q6GI75)	enzyme activity, inhibitor, progress curve kinetics				dissociation rate constant	3.46 ± 0.29 h⁻¹
B1	Dipeptidyl peptidase 9 (DPP9, Homo sapiens, UniProt Q86TI2)	enzyme activity		200 µM, 37 °C	relative to: FAPα over DPP9	selectivity ratio	18 fold
CLVL	Protein farnesyltransferase	enzyme activity, substrate, fluorimetric	peptide	3 µM, 30 min, together with: 9 µM farnesyl diphosphate	relative to: dansyl-GCVLS (set to 1.0)	relative fluorescence increase	< 0.05
Oc1ccc(-c2ccc(Cl)cc2)c(Cl)c1	Sulfotransferase 2A1 (SULT2A1, Homo sapiens, UniProt Q06520)	substrate, HPLC of PAP formation		substrate inhibition fit, together with: PAPS 200 µM		Vmax	56100 ± 42600 pmol/mg/min
O=C1C(CC[S+]([O-])c2ccccc2)C(=O)N(c2ccccc2)N1c1ccccc1 (stereo not shown)	SLC10A1	inhibitor	HEK293 expressing NTCP	100 µM, 5 min, together with: taurocholate 10 µM	relative to: no compound	taurocholate uptake	96.1 ± 3.2%

Substance	target	test	test system	setting	scale	quantity	value
O=C(CCn1ccc2ccccc21)N(c1ccc(F)cc1)c1ccc(F)cc1	Proteasome subunit alpha type-2/Proteasome subunit alpha type-6, 20S proteasome (Homo sapiens, UniProt P25787+P60900)	proteolysis, activator, fluorogenic peptide	purified 20S proteasome	up to 30 µM, together with: Suc-LLVY-AMC, Z-LLE-AMC, Boc-LRR-AMC	relative to: vehicle	maximum fold increase	3.5
O=c1c(-c2ccc(O)cc2)coc2cc(O)cc(O)c12	UGT1A9	substrate		pH 7.4, 37 °C		Vmax	1290 pmol/mg/min
CCCCCCCC/C=C\CCCCCCCC(=O)O	Chilo suppressalis CSP2	binding, competitive fluorescence displacement		30 µM, pH 7.4		fluorescence intensity	82 ± 3.32%
CC[C@H](C)[C@H](NC(=O)[C@H](Cc1c[nH]cn1)NC(=O)[C@H](CC(=O)O)NC(=O)[C@H](C)NC(=O)[C@H](CC(C)C)NC(=O)[C@@H](NC(=O)[C@@H](NC(=O)[C@H](CC(C)C)NC(=O)[C@H](CCCNC(=N)N)NC(=O)[C@H](Cc1c[nH]cn1)NC(=O)[C@@H](NC(=O)[C@H](CCCNC(=N)N)NC(=O)[C@@H]1CCCN1C(=O)[C@@H](NC(=O)[C@H](CCC(N)=O)NC(=O)CN)C(C)C)[C@@H](C)O)[C@@H](C)CC)[C@@H](C)O)C(=O)N[C@@H](CS)C(=O)N[C@@H](CCC(N)=O)C(=O)N[C@H](C(=O)N[C@H](C(=O)N[C@H](C(=O)N[C@@H](CCC(N)=O)C(=O)N[C@@H](CC(=O)O)C(=O)N[C@@H](Cc1ccccc1)C(=O)N[C@@H](C)C(=O)N[C@@H](CCCNC(=N)N)C(=O)O)[C@@H](C)O)[C@@H](C)CC)[C@@H](C)CC	Nuclear receptor subfamily 1 group D member 1 (NR1D1, Homo sapiens, UniProt P20393)	NCoR peptide binding, competitor, TR-FRET		1 h, together with: labelled NCoR 2040-2065 peptide	relative to: mutant over wild-type peptide	IC50 fold change	0
Cl.Cl.Nc1ncnc2c1ncn2[C@@H]1O[C@H](C(=O)N2CCN(CC(=O)Nc3cccc4c3CNC4=O)CC2)[C@@H](O)[C@H]1O	Poly [ADP-ribose] polymerase 1 (PARP1, Homo sapiens, UniProt P09874)	DNA binding, fluorescence polarization DNA competition		100 µM, 200 s, together with: unlabeled competitor DNA 2 µM		PARP1 bound to DNA	63 ± 2%
COc1cc2c(NC3CCN(CCCC(=O)NCCCC(=O)N[C@H](C(=O)N4C[C@H](O)C[C@H]4C(=O)NCc4ccc(-c5scnc5C)cc4)C(C)(C)C)CC3)nc(N3CCC(F)(F)CC3)nc2cc1OCCCN1CCCC1	Histone-lysine N-methyltransferase EHMT2 (EHMT2, Homo sapiens, UniProt Q96KQ7)	degrader, western blot		0.3 µM, 24 h	relative to: DMSO	degradation	< 8%
O=c1cc(-c2ccccc2)oc2cc(O)c(O)c(O)c12	UGT1A9	substrate		pH 7.4, 37 °C		Vmax	5310 pmol/mg/min
CCCCCC/C=C\CCCCCCCC=O	Chilo suppressalis CSP2	binding, competitive ligand, fluorescence competitive binding		highest concentration tested, pH 7.4, protein 2 µM, together with: 1-NPN 2 µM	relative to: no ligand	remaining 1-NPN fluorescence	36 ± 2.07%
CN(C)C/C=C/C(=O)Nc1cccc(C(=O)Nc2ccc(Nc3nccc(-c4c(-c5ccccc5)nn5ccccc45)n3)cc2)c1	DNA-dependent protein kinase catalytic subunit (PRKDC, Homo sapiens, UniProt P78527)	ATP-biotin probe labeling, KiNativ	A-375	1 µM, 3 h, second of two sites		inhibition	-9.4%
Cc1cc2nc[nH]c2cc1C	Nicotinate-nucleotide--dimethylbenzimidazole phosphoribosyltransferase (cobT, Dehalococcoides mccartyi, UniProt A5FRG9)	alpha-ribazole phosphate formation, substrate		250 µM, 30 min, pH 7.5, 30 °C, together with: 2 mM NaMN		product formed	159.4 ± 1.13 µM
O=C(O)/C(O)=C/C=C\Br	xylH (Pseudomonas putida, UniProt Q01468)	irreversible inactivation, covalent inhibitor		pH 7.3, 24 °C		KI	60 µM
CN(Cc1cccc(CN(C)c2ccc(F)cc2)n1)c1ccc(F)cc1	CXCR4	binding, competition binding	MDA-MB-231	semi-quantitative screen, together with: biotinylated TN14003		lowest effective concentration	1000 nM
COc1ccc(/C=C/c2ccc(B(O)O)cc2)cc1	Albumin (ALB, Homo sapiens, UniProt P02768)	fluorescence quenching, van't Hoff		concentration not given		binding enthalpy	-1.39 kcal/mol
O=C(Nc1ccc2c(O)c(N=Nc3ccc(N=Nc4ccc(S(=O)(=O)[O-])cc4)cc3S(=O)(=O)[O-])c(S(=O)(=O)[O-])cc2c1)Nc1ccc2c(O)c(N=Nc3ccc(N=Nc4ccc(S(=O)(=O)[O-])cc4)cc3S(=O)(=O)[O-])c(S(=O)(=O)[O-])cc2c1.[Na+].[Na+].[Na+].[Na+].[Na+].[Na+]	ancestral DyP peroxidase wild type	peroxidase activity, substrate		pH 4.0, 25 °C, pH 4.5 for Mn2+		Hill coefficient	~3
CCCCC(C(=O)COc1c(F)c(F)cc(F)c1F)n1cc(C2(N)CCN(C(C)=O)CC2)nn1 (stereo not shown)	DPAP1 (Plasmodium falciparum, UniProt Q8IIJ9)	inhibitor	parasite lysate	together with: (Pro-Arg)2-rhodamine substrate		second-order inactivation rate constant	< 20 M⁻¹ s⁻¹
C=CC(C)=CCC=C(C)C	Chilo suppressalis CSP2	binding, competitive ligand, fluorescence competitive binding		highest concentration tested, pH 7.4, protein 2 µM, together with: 1-NPN 2 µM	relative to: no ligand	remaining 1-NPN fluorescence	85.4 ± 1.71%
CC(C)C[C@H](NC(=O)[C@H](Cc1ccccc1)NC(=O)c1cnccn1)B(O)O	SLC10A1	inhibitor	HEK293 expressing NTCP	100 µM, 5 min, together with: taurocholate 10 µM	relative to: no compound	taurocholate uptake	107 ± 4%

Excerpt of the above:
Substance	target	test	test system	setting	scale	quantity	value
B1	Dipeptidyl peptidase 9 (DPP9, Homo sapiens, UniProt Q86TI2)	enzyme activity		200 µM, 37 °C	relative to: FAPα over DPP9	selectivity ratio	18 fold
CLVL	Protein farnesyltransferase	enzyme activity, substrate, fluorimetric	peptide	3 µM, 30 min, together with: 9 µM farnesyl diphosphate	relative to: dansyl-GCVLS (set to 1.0)	relative fluorescence increase	< 0.05
